# Assay results pooled from the literature.
# Parts stem from different laboratories: compare values within a part only. Values joined by “and” are separate records of one study, mostly repeats; a detail may differ. pIC50: −log10 of the molar value.

# Sample 1 — organism: SARS-CoV-2 Wuhan spike VSV pseudovirus; read-out: pseudovirus entry; concentration: concentration not given
Structure (SMILES),inhibition [%]
COc1ccc2cc3c(N)nn(C(=O)c4ccccc4Cl)c3nc2c1,43
Cc1ccsc1C(=O)N1CCN2C(=O)CNC(=O)C2C1 (stereo not drawn),39
Cc1cc(C(=O)N(Cc2ccccn2)C2CC2)sc1C,40
Cc1ccc(C(=O)C2=C(O)C(=O)N(CC(C)C)C2c2cccc(O)c2)cc1 (stereo not drawn),36
c1ccc(-c2ncn(CCc3c[nH]cn3)c2-c2ccncc2)cc1,40
CCc1ccc(C2CC(=O)Nc3[nH]nc(-c4cccs4)c32)o1 (stereo not drawn),43

# Mixed results
# rep nsp14: Replicase polyprotein 1ab, nsp14 (rep, Severe acute respiratory syndrome coronavirus 2, UniProt P0DTD1)
# rep papain-like protease: Replicase polyprotein 1ab, papain-like protease (rep, Severe acute respiratory syndrome coronavirus 2, UniProt P0DTD1)
# rep nsp12 RdRp: Replicase polyprotein 1ab, nsp12 RdRp (rep, Severe acute respiratory syndrome coronavirus 2, UniProt P0DTD1)
Structure (SMILES),target,assay,system,setting,how to read,endpoint,value
Cc1ccc(NS(=O)(=O)c2cccc(C(=O)NC3CCN(c4ncnc5[nH]cnc45)CC3)c2)cc1,rep nsp14,,,0.1953 µM,,inhibition,-2.11%
CCO.C[C@H]1c2cccc(O)c2C(O)=C2C(=O)[C@]3(O)C(O)=C(C(N)=O)C(=O)[C@@H](N(C)C)[C@@H]3[C@@H](O)[C@@H]21.C[C@H]1c2cccc(O)c2C(O)=C2C(=O)[C@]3(O)C(O)=C(C(N)=O)C(=O)[C@@H](N(C)C)[C@@H]3[C@@H](O)[C@@H]21.Cl.Cl.O,rep papain-like protease,,,"concentration not given, C111S mutant",reference: positive control,activity,28.8%
C[C@@H]1O[C@@H](O[C@@H]2[C@@H](O)[C@H](OCCc3ccc(O)c(O)c3)O[C@H](CO)[C@H]2OC(=O)/C=C/c2ccc(O)c(O)c2)[C@H](O)[C@H](O)[C@H]1O,rep nsp12 RdRp,"binding, biolayer interferometry",,50 µM,,BLI response,0.02 nm
O=C(O)CCC(=O)C(=O)O,rep papain-like protease,,,"concentration not given, C111S mutant",reference: positive control,activity,17.6%
O=C(NC1CCN(c2ncnc3[nH]cnc23)CC1)c1cccc(S(=O)(=O)N2CCC2)c1,rep nsp14,enzyme activity,SARS-CoV-2,,,pIC50,5.43 and 5.26
Cc1cc([N+](=O)[O-])c(NS(=O)(=O)c2cccc(C(=O)O)c2)cc1-c1cccnc1,rep nsp12 RdRp,"binding, biolayer interferometry",,concentration not given,,BLI response,0.01 nm

# Some of these lines once more (mixed results):
Structure (SMILES),target,assay,system,setting,how to read,endpoint,value
C[C@@H]1O[C@@H](O[C@@H]2[C@@H](O)[C@H](OCCc3ccc(O)c(O)c3)O[C@H](CO)[C@H]2OC(=O)/C=C/c2ccc(O)c(O)c2)[C@H](O)[C@H](O)[C@H]1O,rep nsp12 RdRp,"binding, biolayer interferometry",,50 µM,,BLI response,0.02 nm
